Measured values collected from several papers.
Compare with care: the assays were run in different laboratories. ± marks the error that the study gave.

C[C@]12C=CC(=O)C=C1C(CSC[C@H](N)C(=O)O)C[C@@H]1[C@@H]2CC[C@]2(C)C(=O)CC[C@@H]12 (some centres unmarked) — mean serum concentration (human, postmenopausal women, serum; dose not given): 27 nM
CCCC1CCC(C2CCC(c3ccc(F)c(F)c3)CC2)CC1 (centres unmarked) — fetal accumulation (rat, fetus; 5000 ng/mL in perfusate, high dose, mixture of 21 LCMs): 1.63 ± 1.56 ng/g
CC(C)(O)c1cc(Nc2cc(Oc3cn(C4CC4)nc3C3CCOCC3)ccn2)ccn1 — treatment-emergent adverse events (Headache; advanced cancer patients, dose escalation; oral, dose not given, 2 weeks on/off, all causality grade ≥3): 10%
CC(=O)c1c(C)c2cnc(Nc3ccc(C4CCN(CCS(C)(=O)=O)CC4)cn3)nc2n(C2CCCC2)c1=O — AUC(0-inf) (human, plasma; oral, 50 mg twice daily, day 1, single dose, together with: letrozole): 459 ng·h/mL
COc1cc2c(Oc3ccc4[nH]c(C)cc4c3F)ccnc2cc1OCC1(N)CC1 — patients with grade 3 ALP elevation (paediatric refractory sarcoma patients; 8 mg/kg): 0%
CC(C)(c1ccccc1)c1cc(-n2nc3ccccc3n2)c(O)c(C(C)(C)c2ccccc2)c1 — daily dermal exposure dose (human aged 21-60 years; concentration not given, foundation, 95th percentile): 1.97 ng/kg/day
Cn1cc(-c2nc(N[C@@H]3CCCC[C@@H]3N)c(F)c3c2C(=O)NC3)cn1 — hemorrhagic adverse events (measured: Rectal haemorrhage; patients with relapsed or refractory AML; oral, 100 mg once daily): 14%
CCS(=O)(=O)Nc1ccc(Oc2ccc(F)cc2F)c(-c2cn(C)c(=O)c3[nH]ccc23)c1 — treatment-emergent adverse events (fungal sepsis leading to discontinuation; human, relapsed/refractory AML; oral, dose not given): 5%
Cc1nc(-c2cnc(NC(C)C)n(C)c2=O)ccc1Oc1ccnc(-c2cnn(C)c2)c1 — abdominal pain TEAE (humans, solid tumours; oral, dose not given, grade 3/4, all cohorts): 1 patients
COc1ccc2c(c1)CN(C(=O)CCN1CCC(Cc3ccccc3)CC1)CC[S@@+]2[O-] — unbound plasma concentration (female Beagle dogs, chronic AV block, plasma; intravenous, 1 mg/kg, end of 10 min infusion): 550 ± 190 nM
C=CC(=O)N1CC[C@H](n2nc(C#Cc3cc(OC)cc(OC)c3)c3c(N)ncnc32)C1 — adverse drug reaction incidence (patients with advanced solid tumours; oral, dose not given, Hyperphosphatemia, any grade, QD, together with: lanthanum carbonate hydrate): 100%
COc1cc(C(=O)NC2CCN(C)CC2)c(F)cc1Nc1ncc(C(F)(F)F)c(Oc2cccc3c2C(=O)N(C)C3)n1 — mean residence time (human patients, plasma; oral, 10 mg single dose, geometric mean): 24 h
O=[N+]([O-])NC1=NCCN1Cc1ccc(Cl)nc1 — dose fraction in permeate (ultrafiltration; cow milk whey; 200 nM nominal in whole milk): 62.1%
CNC(=O)c1cc(Oc2ccc(NC(=O)Nc3cc(C(C)(C)C)nn3-c3ccc4ncccc4c3)c(F)c2)ccn1 — related SAE (muscular weakness, NCI CTC v3.0; human patients; oral, 200 mg twice daily, tablet, dose at onset): 25%

For quick reference, copied from above:
C=CC(=O)N1CC[C@H](n2nc(C#Cc3cc(OC)cc(OC)c3)c3c(N)ncnc32)C1 — adverse drug reaction incidence (patients with advanced solid tumours; oral, dose not given, Hyperphosphatemia, any grade, QD, together with: lanthanum carbonate hydrate): 100%
